Results from different studies.
Each line is one published result; not all experiments were run side by side. Values joined by “and” are separate records of one study, mostly repeats; a detail may differ. ± marks the error that the study gave.

CC(C)(C)[C@H](NC(=O)C(F)(F)F)C(=O)N1C[C@H]2[C@@H]([C@H]1C(=O)N[C@H](C#N)C[C@@H]1CCNC1=O)C2(C)C has an EC90 of 69.2 ± 14.1 nM (SARS-CoV-2; viral replication; Omicron BA.1 strain; 48 h).
With O=c1nc[nH]c2c1ncn2[C@H]1CC[C@@H](CO)O1 the EC90 was 17800 ± 690 nM (SARS-CoV-2; infectious virus yield; Vero C1008, VOC-202012/01; 48 h, 90% decrease endpoint).
C[C@@H]1CN(c2ncc(C(O)CO)cc2Cl)CCN1c1nc2c(-c3cc(F)c(F)c(F)c3)cc(C(F)(F)F)cc2[nH]1 (stereo partly drawn) gave an EC90 of roughly 1240 nM (SARS-CoV-2; viral replication, inhibitor; Vero E6, USA-WA1/2020; 24 h).
CCC(CC)COC(=O)[C@H](C)N[P@](=O)(OC[C@H]1O[C@@](C#N)(c2ccc3c(N)ncnn23)[C@H](O)[C@@H]1O)Oc1ccccc1 has an EC90 of 3300 nM (SARS-CoV-2; viral replication; VeroE6/TMPRSS2).
For `calpain inhibitor III`, the EC90 was 304 nM (SARS-CoV-2; viral replication; 293T-ACE2, USA-WA1/2020).
COc1ccc(Cl)cc1NC(=O)CSc1nc2ccccc2nc1N1CCCCC1 gave a maximum response of 92% (SARS-CoV-2; cytopathic effect; USA_WA1/2020; round 1, 5-point).
Under “subjects with adverse event”, CC[C@H](C)[C@H](NC(=O)[C@H](CC(C)C)NC(=O)[C@H](Cc1c[nH]c2ccccc12)NC(=O)[C@H](CCC(N)=O)NC(=O)[C@@H](NC(=O)[C@H](Cc1ccccc1)NC(=O)[C@H](C)NC(=O)[C@H](CCCCNC(=O)COCCOCCNC(=O)COCCOCCNC(=O)CC[C@H](NC(=O)CCCCCCCCCCCCCCCCCCC(=O)O)C(=O)O)NC(=O)[C@H](CCC(N)=O)NC(=O)[C@H](C)NC(=O)[C@@H](NC(=O)[C@H](CCCCN)NC(=O)[C@H](CC(=O)O)NC(=O)[C@H](CC(C)C)NC(=O)C(C)(C)NC(=O)[C@@H](NC(=O)[C@H](CO)NC(=O)[C@H](Cc1ccc(O)cc1)NC(=O)[C@H](CC(=O)O)NC(=O)[C@H](CO)NC(=O)[C@@H](NC(=O)[C@H](Cc1ccccc1)NC(=O)[C@@H](NC(=O)CNC(=O)[C@H](CCC(=O)O)NC(=O)C(C)(C)NC(=O)[C@@H](N)Cc1ccc(O)cc1)[C@@H](C)O)[C@@H](C)O)[C@@H](C)CC)[C@@H](C)CC)C(C)C)C(=O)N[C@@H](C)C(=O)NCC(=O)NCC(=O)N1CCC[C@H]1C(=O)N[C@@H](CO)C(=O)N[C@@H](CO)C(=O)NCC(=O)N[C@@H](C)C(=O)N1CCC[C@H]1C(=O)N1CCC[C@H]1C(=O)N1CCC[C@H]1C(=O)N[C@@H](CO)C(N)=O is recorded as 0% (measured: treatment-emergent medical device site pruritus; healthy subjects; 1.5 mg, multiple ascending dose).
CNC(=O)[C@@H](NC(=O)[C@H](CC(C)C)[C@H](O)C(=O)NO)C(C)(C)C has an IC50 of 216 nM and 139 nM and 237 nM (snake venom metalloproteinase; proteolytic activity, inhibitor; Daboia russelii, venom KL; added: azocasein).
The EC90 of Cn1cnc(Cn2c(=O)[nH]/c(=N\c3cc4cn(C)nc4cc3Cl)n(Cc3cc(F)c(F)cc3F)c2=O)n1 is reported as 66 ± 12.5 nM (SARS-CoV-2; viral replication; Omicron BA.1 strain; 24 h).
For Cn1cnc(Cn2c(=O)[nH]/c(=N\c3cc4cn(C)nc4cc3Cl)n(Cc3cc(F)c(F)cc3F)c2=O)n1, “patients with adverse event” read 0% (human, moderate renal impairment; oral, 375 mg, decreased GFR TEAE, severe severity).
The AC50 of Cc1ccccc1CN1C(=O)c2ccccc2Sc2ccc(C(=O)NCCCN3CCOCC3)cc21 is reported as 11200 nM (SARS-CoV-2; cytopathic effect, cell-based CPE; USA_WA1/2020; round 1, 5-point dilution).
Nc1ncnc2c([C@@H]3N[C@H](CO)[C@@H](O)[C@H]3O)c[nH]c12 gave an inhibition of 22.6% (Marburg virus; viral replication; HeLa, Angola; 1.6 µM).
N#C[C@@]1(n2ccc(N)nc2=O)O[C@H](CO)[C@@H](O)[C@H]1O gave an EC90 of 4000 ± 6500 nM (SARS-CoV-2; viral replication, cell-based; Washington).
For COc1cc2c(cc1N1C[C@@H](C)N[C@@H](C)C1)N(C(=O)c1ccc(-c3ccc(-c4noc(C)n4)cc3C)cc1)CC2, the EC90 was greater than 2500 nM (SARS-CoV-2; viral replication; Huh-7-ACE2, USA-WA1/2020).
With CCC(CC)COC(=O)[C@H](C)N[P@](=O)(OC[C@H]1O[C@@](C#N)(c2ccc3c(N)ncnn23)[C@H](O)[C@@H]1O)Oc1ccccc1 the EC90 was 3700 ± 400 nM (SARS-CoV-2; viral replication, qRT-PCR of viral RNA; Vero, Washington).
With C[C@@]1(O)[C@H](O)[C@@H](CO)O[C@H]1n1cc(F)c2c(N)ncnc21 the EC90 was 28800 ± 800 nM (SARS-CoV-2; viral replication; Vero; 48 h).
The EC90 of CC(C)(C)[C@H](NC(=O)C(F)(F)F)C(=O)N1C[C@H]2[C@@H]([C@H]1C(=O)N[C@H](C#N)C[C@@H]1CCNC1=O)C2(C)C is reported as 5600 ± 1100 nM (SARS-CoV-2; viral replication, qRT-PCR of viral RNA; Vero, Washington).
Fc1ccc(-c2ccc(CN3CCN(c4cccc5ccoc45)CC3)[nH]2)cc1 gave an EC90 of 406 nM (SARS-CoV-2; viral replication; 293T-ACE2, USA-WA1/2020).
